Results of several laboratories.
Each line is one published result; not all experiments were run side by side. Several values in a cell are separate wells, animals, samples, runs or records.
Target: Serine/threonine-protein kinase MRCK beta (CDC42BPB, Homo sapiens, UniProt Q9Y5S2)

Compound | assay | system | conditions | scale | quantity | value
COc1c(Cl)cccc1Nc1c(-c2ccncc2C#C[C@@]2(C)CCCN2C(=O)/C=C/CN(C)C)[nH]c2c1C(=O)NCC2 | cell-free assay, competition with immobilised ligand | – | 3 µM | – | remaining binding | 84%
CN1CC[C@@H](COc2cnc(C#N)cc2-c2ccn3nc(NC(=O)C4CC4)cc3c2)C1 | inhibitor, KinaseProfiler panel | – | 1 µM | – | inhibition | -5%
C=CC(=O)Nc1cccc(-c2cnc3[nH]cc(C(=O)NC(C)(C)C)c3n2)c1 | enzyme activity, inhibitor | – | 0.1 µM | – | inhibition | 13%
CCN1CCN(Cc2ccc(C(=O)Nc3ccc(C)c(NCc4cnc5[nH]ccc5c4OC)c3)cc2C(F)(F)F)CC1 | binding, competition with immobilised ligand | – | 1 µM | – | remaining binding | 100%
NC(=O)[C@@H](O)C[C@H]1CCc2sc3ncnc(O[C@H]4CC[C@H](N5CCOCC5)CC4)c3c21 | enzyme activity, inhibitor | – | 10 µM | – | inhibition | 3%
N[C@H]1CC[C@H](Nc2nccc(-c3cccnc3Oc3ccc(NC(=O)NC4CC4)c4ccccc34)n2)CC1 | kinobead competition pulldown | HEK293/HCT116 lysate mixture | 10 µM, 1 h, 4 °C | lower = stronger competition | log2 LFQ intensity | 22.4 and 22.2 and 22.3 and 21.7
COc1c(OCCCN2CCOCC2)ccc2c1N=C(NC(=O)c1cnc(N)nc1)N1CCN=C21 | kinase activity, inhibitor | – | 1 µM | reference: untreated control | remaining activity | 95%
CCn1cc(C(=O)O)c(=O)c2c(N)c(F)c(NC3CCCCC3)cc21 | kinase activity | – | 0.1 µM, added: ATP at Km | – | inhibition | 10%
COc1ccc(NC(=O)Nc2ccc3c(c2)C(=O)N(C(C)CO)CC(C)C(CN(C)Cc2ccc4c(c2)OCO4)O3)cc1 (stereo not shown) | kinase activity, KinaseProfiler | – | 0.03 µM, species human | reference: control | remaining activity | 96%
Cc1cnc2nc1Nc1cccc(c1)COC/C=C/COCc1cc(ccc1OCCN1CCOCC1)N2 | binding, competition with immobilised ligand | – | 0.1 µM | – | remaining binding | 100%
COc1ccc(O)cc1-c1c[nH]c2ncc(-c3cncc(C(=O)N(C)C)c3)cc12 | binding, competition with immobilised ligand | – | 0.2 µM | – | inhibition | 19.4%
CN1CCN(Cc2ccc(-c3ccc(CO[C@H]4CCC[C@@H]4NC(=O)c4cc(-c5cnn(C)c5)cnc4N)cc3)cc2)CC1 | enzyme activity, inhibitor | – | 0.1 µM | – | inhibition | 0%
COCC12C(=O)NC3C4(C(OC)CC1O)C1CC5(O)C(OC)C(O)C(OC(C)=O)(C1C5OC(=O)c1ccccc1)C3(O)C(OC)C24 (stereo not shown) | kinase activity, inhibitor, ProQinase kinase profiling | – | 25 µM | reference: control | remaining activity | 96% and 110%
C=CC(=O)N1CCc2ccc(-n3c(=O)ccc4cnc5ccc(-c6cnn(C)c6)cc5c43)cc21 | KINOMEscan | – | 1 µM | reference: DMSO control | remaining binding | 96%
O=C=[N][Ru-4]123([n]4c5ccc(O)cc5c5c6c(c7cc(F)c[n+]1c7c54)C(=O)NC6=O)[S+]1CC[S+]2CC[S+]3CC1 (stereo not shown) | enzyme activity | – | 100 nM, human enzyme, added: 10 µM ATP | reference: untreated | remaining activity | 105%
Cc1cccc(O[C@H]2CCC[C@@H](C(C)CNCc3ccncc3)C2)c1 (relative stereo) | enzyme activity, inhibitor | – | 10 µM | – | inhibition | -1%

Some of these lines once more:
Compound | assay | system | conditions | scale | quantity | value
COc1ccc(NC(=O)Nc2ccc3c(c2)C(=O)N(C(C)CO)CC(C)C(CN(C)Cc2ccc4c(c2)OCO4)O3)cc1 (stereo not shown) | kinase activity, KinaseProfiler | – | 0.03 µM, species human | reference: control | remaining activity | 96%
COc1c(OCCCN2CCOCC2)ccc2c1N=C(NC(=O)c1cnc(N)nc1)N1CCN=C21 | kinase activity, inhibitor | – | 1 µM | reference: untreated control | remaining activity | 95%
COc1ccc(O)cc1-c1c[nH]c2ncc(-c3cncc(C(=O)N(C)C)c3)cc12 | binding, competition with immobilised ligand | – | 0.2 µM | – | inhibition | 19.4%
